Published values collected from several papers.
Compare with care: the assays were run in different laboratories. Converted amounts (≈) assume the structure as drawn.
MAP2K7: Dual specificity mitogen-activated protein kinase kinase 7 (MAP2K7, Homo sapiens, UniProt O14733)
Sequence of UniProt O14733 (whole entry, looked up): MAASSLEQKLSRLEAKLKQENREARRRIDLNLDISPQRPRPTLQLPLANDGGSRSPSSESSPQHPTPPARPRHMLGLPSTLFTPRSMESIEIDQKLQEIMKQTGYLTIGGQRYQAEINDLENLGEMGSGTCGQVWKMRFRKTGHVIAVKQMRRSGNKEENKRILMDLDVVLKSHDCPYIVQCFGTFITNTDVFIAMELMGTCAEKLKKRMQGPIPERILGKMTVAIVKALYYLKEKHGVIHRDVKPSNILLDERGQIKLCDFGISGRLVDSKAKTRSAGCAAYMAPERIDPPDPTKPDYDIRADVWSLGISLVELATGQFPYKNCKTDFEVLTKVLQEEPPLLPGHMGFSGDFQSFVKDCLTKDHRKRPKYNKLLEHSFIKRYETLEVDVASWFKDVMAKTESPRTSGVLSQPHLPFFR
Sequence of UniProt Q52WX2 (whole entry, looked up): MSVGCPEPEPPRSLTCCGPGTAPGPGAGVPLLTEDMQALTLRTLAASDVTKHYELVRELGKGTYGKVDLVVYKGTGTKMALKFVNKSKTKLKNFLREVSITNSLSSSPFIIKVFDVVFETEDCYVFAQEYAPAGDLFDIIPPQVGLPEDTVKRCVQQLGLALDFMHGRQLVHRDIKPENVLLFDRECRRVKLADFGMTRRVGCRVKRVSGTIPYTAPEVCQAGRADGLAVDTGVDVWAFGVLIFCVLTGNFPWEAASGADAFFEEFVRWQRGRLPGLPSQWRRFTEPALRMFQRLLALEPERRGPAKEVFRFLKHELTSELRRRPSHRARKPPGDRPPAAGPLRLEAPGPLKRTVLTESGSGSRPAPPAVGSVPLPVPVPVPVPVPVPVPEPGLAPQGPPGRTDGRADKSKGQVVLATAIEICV

C=C(C)[C@@H]1CC[C@]2(NCCN3CCS(=O)(=O)CC3)CC[C@]3(C)[C@H](CC[C@@H]4[C@@]5(C)CC=C(C6=CC[C@@](COc7ncccc7C#N)(C(=O)O)CC6)C(C)(C)[C@@H]5CC[C@]43C)[C@@H]12 — concentration (human, plasma; oral, 100 mg, 24 h, single dose, fasted, tablet): 154 ng/mL
CCC[C@@](N)(CO)CCc1ccc(OCCCCCC(C)C)cc1 — Cmax (dog, plasma; oral, 5 mg/kg, fed): 350 nM
N=c1c2c(-c3ccccc3)c(-c3ccccc3)n(Cc3ccccc3)c2ncn1[C@H]1CC[C@H](O)CC1 — bioavailability (female minipig, plasma; oral, 2.5 mg/kg, single dose): > 80%
[2H]c1c([2H])c([C@]2([2H])CCCN2C(=O)C(C)(C)Oc2ccc3cn[nH]c3c2)c([2H])c([2H])c1C([2H])([2H])[2H] — remaining binding (Serine/threonine-protein kinase SBK1 (SBK1, Homo sapiens, UniProt Q52WX2); binding, competition with immobilised ligand; 1 µM): 95%
CC[C@@H]1NC(=O)[C@H](CC(C)C)NC(=O)CNC(=O)CNC(=O)[C@@H](CC(C)C)NC(=O)[C@@H](Cc2ccc(O)cc2)NC(=O)CSC[C@@H](C(=O)O)NC(=O)[C@H](C(C)C)NC(=O)[C@H](CC(C)C)NC(=O)[C@H](C)NC(=O)[C@H]([C@@H](C)CC)NC1=O — solubility (aqueous buffer; pH 7.4): 4 µM (≈ 4.59 µg/mL)
COc1ncccc1-c1cnn2ccc(N3CCN(C(=O)OC(C)C)CC3)nc12 — remaining binding (MAP2K7; binding, competition with immobilised ligand; 1 µM): 92%
CC(c1cncnc1)n1c(=S)[nH]c2ccc(Cl)cc2c1=O (stereo not shown) — half-life (metabolic stability; human, liver microsomes; 1 µM, pH 7.4): > 3.1 h
CC(C)C[C@H](NC(=O)[C@H](Cc1ccccc1)NC(=O)[C@H](Cc1ccccc1)NC(=O)Cc1ccc(-c2ccccc2)cc1)C(=O)N[C@@H](CCCCN)C(=O)N[C@@H](CCCNC(=N)N)C(=O)N[C@H](C(=O)N[C@@H](Cc1c[nH]c2ccccc12)C(=O)N[C@@H](CCCCN)C(=O)N[C@@H](CCCNC(=N)N)C(=O)O)C(C)C — compound remaining (metabolic stability; rat, liver microsomes; 30 min): 25.4%
Cc1nn(C)cc1-c1nc2c(N3CCN(Cc4ccc(Cl)cc4)CC3)c(Cl)cnc2[nH]1 — remaining binding (MAP2K7; binding, competition with immobilised ligand; 1 µM): 100%
CC[C@H](C)[C@H]1C(=O)N[C@@H](CO)C(=O)N[C@@H](CC(C)C)C(=O)NCC(=O)N2CCC[C@H]2C(=O)N[C@@H](CC(C)C)C(=O)N[C@@H]([C@@H](C)O)C(=O)N[C@@H](CC(C)C)C(=O)N[C@@H](CC(=O)O)C(=O)N[C@H](Cc2ccc(O)cc2)C(=O)N2CCC[C@@H]2C(=O)N[C@H](Cc2ccc(O)cc2)C(=O)N1C — solubility (aqueous buffer; 18 h, pH 7.4): 407 µM (≈ 549 µg/mL)
CC(C)(C)[C@H](NC(=O)[C@H](CCONC(=N)N)NC(=O)Cc1ccc(CNC(=N)N)cc1)C(=O)N[C@@H](CCONC(=N)N)C(=O)NCc1ccc(C(=N)N)cc1 — Vd/F (male Sprague-Dawley rat, plasma; intraperitoneal, 2.5 mg/kg): 0.639 L/kg
CC(C)C[C@H]1C(=O)N[C@@H]([C@@H](C)O)C(=O)N[C@@H](CO)C(=O)N[C@@H](C)C(=O)N[C@H]([C@H](C)O)C(=O)N2CCC[C@H]2C(=O)N(C)[C@@H](CC(C)C)C(=O)N[C@H](Cc2ccc(O)cc2)C(=O)N[C@H](Cc2ccccc2)C(=O)N[C@H](C(C)C)C(=O)NCC(=O)N1C — solubility (aqueous buffer; 18 h, pH 7.4): 182 µM (≈ 214 µg/mL)
CCOC(=O)c1c(NC(=O)CNC(C)C)sc2c1CCCCC2 — half-life (male mouse, plasma; intraperitoneal, 100 mg/kg, single dose): 2.11 h

Excerpt of the above:
CC[C@H](C)[C@H]1C(=O)N[C@@H](CO)C(=O)N[C@@H](CC(C)C)C(=O)NCC(=O)N2CCC[C@H]2C(=O)N[C@@H](CC(C)C)C(=O)N[C@@H]([C@@H](C)O)C(=O)N[C@@H](CC(C)C)C(=O)N[C@@H](CC(=O)O)C(=O)N[C@H](Cc2ccc(O)cc2)C(=O)N2CCC[C@@H]2C(=O)N[C@H](Cc2ccc(O)cc2)C(=O)N1C — solubility (aqueous buffer; 18 h, pH 7.4): 407 µM (≈ 549 µg/mL)
CC(C)(C)[C@H](NC(=O)[C@H](CCONC(=N)N)NC(=O)Cc1ccc(CNC(=N)N)cc1)C(=O)N[C@@H](CCONC(=N)N)C(=O)NCc1ccc(C(=N)N)cc1 — Vd/F (male Sprague-Dawley rat, plasma; intraperitoneal, 2.5 mg/kg): 0.639 L/kg
